Results pooled from the literature.
Each numbered part is a random draw from the data of one study; scales do not carry over between parts. “And” joins repeats or separate records; there may be more than shown.
Sequence of UniProt Q15418 (whole entry, looked up): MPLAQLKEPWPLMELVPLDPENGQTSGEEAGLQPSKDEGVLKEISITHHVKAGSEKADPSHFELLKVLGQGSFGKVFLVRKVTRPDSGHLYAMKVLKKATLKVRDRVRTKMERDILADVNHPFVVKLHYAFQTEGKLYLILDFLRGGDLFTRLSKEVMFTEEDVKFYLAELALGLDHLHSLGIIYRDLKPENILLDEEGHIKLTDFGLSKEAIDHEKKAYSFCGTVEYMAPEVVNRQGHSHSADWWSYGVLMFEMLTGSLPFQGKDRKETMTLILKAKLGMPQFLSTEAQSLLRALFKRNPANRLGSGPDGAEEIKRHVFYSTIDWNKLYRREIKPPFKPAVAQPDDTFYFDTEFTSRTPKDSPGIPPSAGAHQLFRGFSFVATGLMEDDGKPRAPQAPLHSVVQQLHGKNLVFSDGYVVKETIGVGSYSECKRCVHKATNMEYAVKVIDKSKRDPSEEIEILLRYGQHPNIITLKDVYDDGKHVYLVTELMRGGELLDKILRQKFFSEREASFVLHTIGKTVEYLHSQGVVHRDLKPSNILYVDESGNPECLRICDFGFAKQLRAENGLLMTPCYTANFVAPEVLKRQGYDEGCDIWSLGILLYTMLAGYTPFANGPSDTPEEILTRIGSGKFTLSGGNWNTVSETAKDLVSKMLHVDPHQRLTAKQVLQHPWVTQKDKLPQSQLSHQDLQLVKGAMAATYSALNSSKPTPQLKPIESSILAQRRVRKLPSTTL
Sequence of UniProt Q9H1R3 (whole entry, looked up): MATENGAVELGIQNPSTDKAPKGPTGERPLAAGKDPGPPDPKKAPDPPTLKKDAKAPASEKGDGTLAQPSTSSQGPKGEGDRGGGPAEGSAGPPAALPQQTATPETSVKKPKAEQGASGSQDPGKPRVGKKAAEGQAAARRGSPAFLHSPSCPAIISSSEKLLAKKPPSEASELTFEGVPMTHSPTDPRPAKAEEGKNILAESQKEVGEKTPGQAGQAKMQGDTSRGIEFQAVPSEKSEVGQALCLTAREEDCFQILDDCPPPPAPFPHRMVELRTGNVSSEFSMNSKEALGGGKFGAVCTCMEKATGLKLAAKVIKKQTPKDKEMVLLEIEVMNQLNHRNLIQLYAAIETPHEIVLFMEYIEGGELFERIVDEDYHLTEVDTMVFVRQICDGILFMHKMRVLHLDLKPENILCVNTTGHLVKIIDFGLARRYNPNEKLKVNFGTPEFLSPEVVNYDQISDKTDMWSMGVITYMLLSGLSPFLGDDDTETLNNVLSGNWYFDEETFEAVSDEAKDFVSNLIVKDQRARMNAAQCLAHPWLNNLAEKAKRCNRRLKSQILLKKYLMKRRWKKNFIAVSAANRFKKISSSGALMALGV
Sequence of UniProt P20594 (whole entry, looked up): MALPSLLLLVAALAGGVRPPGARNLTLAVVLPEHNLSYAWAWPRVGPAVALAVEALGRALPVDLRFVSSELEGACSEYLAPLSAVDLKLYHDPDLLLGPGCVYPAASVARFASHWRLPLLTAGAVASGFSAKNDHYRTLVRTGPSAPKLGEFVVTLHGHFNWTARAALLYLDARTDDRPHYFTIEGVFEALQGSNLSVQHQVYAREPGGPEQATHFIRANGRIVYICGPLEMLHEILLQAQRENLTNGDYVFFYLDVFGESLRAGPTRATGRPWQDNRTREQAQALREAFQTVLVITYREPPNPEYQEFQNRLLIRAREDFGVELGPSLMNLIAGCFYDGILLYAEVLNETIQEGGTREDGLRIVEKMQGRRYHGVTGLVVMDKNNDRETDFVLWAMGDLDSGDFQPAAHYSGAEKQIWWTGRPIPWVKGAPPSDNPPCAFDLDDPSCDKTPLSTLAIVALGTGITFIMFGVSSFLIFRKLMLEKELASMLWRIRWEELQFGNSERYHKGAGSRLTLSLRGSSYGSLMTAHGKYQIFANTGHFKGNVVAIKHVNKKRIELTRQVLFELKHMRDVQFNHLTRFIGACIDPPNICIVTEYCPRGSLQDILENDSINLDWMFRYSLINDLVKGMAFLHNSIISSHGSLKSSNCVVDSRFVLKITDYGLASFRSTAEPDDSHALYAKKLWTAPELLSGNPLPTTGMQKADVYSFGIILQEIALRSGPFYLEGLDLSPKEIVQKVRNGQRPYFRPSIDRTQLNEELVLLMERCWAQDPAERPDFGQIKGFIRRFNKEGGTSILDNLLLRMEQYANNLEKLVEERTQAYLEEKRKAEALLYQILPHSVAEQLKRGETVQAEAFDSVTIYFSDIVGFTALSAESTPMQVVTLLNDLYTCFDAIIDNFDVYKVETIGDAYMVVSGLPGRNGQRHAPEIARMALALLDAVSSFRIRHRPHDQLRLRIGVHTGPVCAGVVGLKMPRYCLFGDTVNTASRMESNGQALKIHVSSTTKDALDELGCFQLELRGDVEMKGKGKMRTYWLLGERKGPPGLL

Series 1
Compound: COc1cc(/C=C(\C#N)C(=O)c2ccc(O)c(O)c2)cc(I)c1O
Action: inhibitor
Tested at: 5 µM
| target | effect on | technique | cells | setting | reference | log2 fold change |
| --- | --- | --- | --- | --- | --- | --- |
| ABL1 G2A human | kinase-CDC37 interaction |  | human cells |  | vehicle | 0.136 |
| NPR2 (Homo sapiens, UniProt P20594) |  | cell-based kinome screen | human cells |  | untreated control | 0.17 log2 |
| ERBB4 (Homo sapiens, UniProt Q15303, E836K) | kinase–CDC37 interaction |  |  | ERBB4 E836K oncogenic mutant | vehicle control | -0.075 |
| RPS6KA1 (Homo sapiens, UniProt Q15418) | kinase-CDC37 interaction |  | human cells |  | vehicle | 0.144 |
| FLT3 ITD human | kinase-CDC37 interaction |  | human cells |  | vehicle | 0.958 |
| FLT3 (Homo sapiens, UniProt P36888) |  | cell-based kinome screen | human cells |  | vehicle | 0.789 |
| MYLK2 (Homo sapiens, UniProt Q9H1R3) |  | cell-based kinome screen | human cells |  | untreated control | -0.03 |
| KSR2 (Homo sapiens, UniProt Q6VAB6) |  | cell-based kinome screen | human cells |  | untreated control | 0.607 log2 |

Series 2
Target: 5-hydroxytryptamine receptor 5A (HTR5A, Homo sapiens, UniProt P47898)
Sequence of UniProt P47898 (whole entry, looked up): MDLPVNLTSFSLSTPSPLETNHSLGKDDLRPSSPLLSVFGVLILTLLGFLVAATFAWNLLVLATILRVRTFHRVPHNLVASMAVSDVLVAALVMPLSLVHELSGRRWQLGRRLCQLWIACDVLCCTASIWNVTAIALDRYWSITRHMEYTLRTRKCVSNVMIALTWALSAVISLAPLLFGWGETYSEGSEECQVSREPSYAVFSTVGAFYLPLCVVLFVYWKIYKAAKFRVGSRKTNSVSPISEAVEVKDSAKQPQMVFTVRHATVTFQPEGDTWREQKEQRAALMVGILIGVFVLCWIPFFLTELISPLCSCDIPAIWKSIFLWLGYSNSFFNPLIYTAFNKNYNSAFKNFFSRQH
Effect on: cell-free assay
Tested at: 10 µM
| SMILES | inhibition [%] |
| --- | --- |
| CC(=O)N1CCC(c2ccc(C(=O)NC(=N)N)cc2C(F)(F)F)CC1 | -4.89 |
| CC(=O)Nc1c(F)cc(C(=O)N[C@H]2CC[C@H](O)CC2)cc1O[C@@H](C)c1ccccc1 | -8.96 |
| O=C(Nc1cccnn1)N1CCC(=Cc2cccc(Oc3ccc(C(F)(F)F)cn3)c2)CC1 | 28.4 |
| O=C(NCc1ncc(C(F)(F)F)cc1Cl)c1ccc2c(c1)C1(CCS(=O)(=O)CC1)[C@H](C1CC1)N2S(=O)(=O)c1ccc(F)cc1 | -8.25 |
| CNCc1ccccc1-c1csc([C@@H](C)Nc2nc(C)nc3cc(OC)c(OC)cc23)c1 | 68.5 |
| Cc1nc(N2CC[C@@H](O)C2)ncc1-c1cc(C(F)(F)F)cc2[nH]ncc12 | -2.09 |

Series 3
Target: Calcium/calmodulin-dependent protein kinase type II subunit alpha (CAMK2A, Homo sapiens, UniProt Q9UQM7)
Sequence of UniProt Q9UQM7 (whole entry, looked up): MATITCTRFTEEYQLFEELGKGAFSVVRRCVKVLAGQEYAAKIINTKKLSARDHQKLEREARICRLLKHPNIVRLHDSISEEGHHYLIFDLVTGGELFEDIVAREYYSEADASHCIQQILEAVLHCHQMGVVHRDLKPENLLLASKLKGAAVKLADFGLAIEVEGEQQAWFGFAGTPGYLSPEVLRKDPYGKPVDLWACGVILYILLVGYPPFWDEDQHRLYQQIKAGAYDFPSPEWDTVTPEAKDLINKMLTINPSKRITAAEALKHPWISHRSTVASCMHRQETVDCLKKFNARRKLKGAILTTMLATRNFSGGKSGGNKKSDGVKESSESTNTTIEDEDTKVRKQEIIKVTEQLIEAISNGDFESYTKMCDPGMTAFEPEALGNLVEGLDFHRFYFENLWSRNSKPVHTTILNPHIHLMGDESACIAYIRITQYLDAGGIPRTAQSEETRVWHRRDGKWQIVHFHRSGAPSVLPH
Effect on: enzyme activity
Action: inhibitor
Tested at: 10 µM
| SMILES | inhibition |
| --- | --- |
| COC(=O)[C@@]12OC[C@]34[C@H]([C@@H](O)[C@@H]1O)[C@@]1(C)CC(=O)C(O)=C(C)[C@@H]1C[C@H]3OC(=O)[C@H](OC(=O)C=C(C)C)[C@@H]24 | -19% |
| CC(=O)Oc1cccc(O)c1 | 0% |
| CCCCCCCc1cc(=O)c2ccccc2n1O | -2% |
| C=C[C@](C)(O)CC[C@H]1C(=C)CC[C@H]2C(C)(C)CCC[C@]12C | -33% |
| Cc1c(O)cc2c(c1C)O[C@](C)(CCC[C@H](C)CCC[C@H](C)CCCC(C)C)CC2 | 4% |
| Cn1ncnc1[C@H]1c2n[nH]c(=O)c3cc(F)cc(c23)N[C@@H]1c1ccc(F)cc1 | -0.11% and -0.1% |

Series 4
Target: Serine/threonine-protein kinase WNK3 (WNK3, Homo sapiens, UniProt Q9BYP7)
Sequence of UniProt Q9BYP7 (whole entry, looked up): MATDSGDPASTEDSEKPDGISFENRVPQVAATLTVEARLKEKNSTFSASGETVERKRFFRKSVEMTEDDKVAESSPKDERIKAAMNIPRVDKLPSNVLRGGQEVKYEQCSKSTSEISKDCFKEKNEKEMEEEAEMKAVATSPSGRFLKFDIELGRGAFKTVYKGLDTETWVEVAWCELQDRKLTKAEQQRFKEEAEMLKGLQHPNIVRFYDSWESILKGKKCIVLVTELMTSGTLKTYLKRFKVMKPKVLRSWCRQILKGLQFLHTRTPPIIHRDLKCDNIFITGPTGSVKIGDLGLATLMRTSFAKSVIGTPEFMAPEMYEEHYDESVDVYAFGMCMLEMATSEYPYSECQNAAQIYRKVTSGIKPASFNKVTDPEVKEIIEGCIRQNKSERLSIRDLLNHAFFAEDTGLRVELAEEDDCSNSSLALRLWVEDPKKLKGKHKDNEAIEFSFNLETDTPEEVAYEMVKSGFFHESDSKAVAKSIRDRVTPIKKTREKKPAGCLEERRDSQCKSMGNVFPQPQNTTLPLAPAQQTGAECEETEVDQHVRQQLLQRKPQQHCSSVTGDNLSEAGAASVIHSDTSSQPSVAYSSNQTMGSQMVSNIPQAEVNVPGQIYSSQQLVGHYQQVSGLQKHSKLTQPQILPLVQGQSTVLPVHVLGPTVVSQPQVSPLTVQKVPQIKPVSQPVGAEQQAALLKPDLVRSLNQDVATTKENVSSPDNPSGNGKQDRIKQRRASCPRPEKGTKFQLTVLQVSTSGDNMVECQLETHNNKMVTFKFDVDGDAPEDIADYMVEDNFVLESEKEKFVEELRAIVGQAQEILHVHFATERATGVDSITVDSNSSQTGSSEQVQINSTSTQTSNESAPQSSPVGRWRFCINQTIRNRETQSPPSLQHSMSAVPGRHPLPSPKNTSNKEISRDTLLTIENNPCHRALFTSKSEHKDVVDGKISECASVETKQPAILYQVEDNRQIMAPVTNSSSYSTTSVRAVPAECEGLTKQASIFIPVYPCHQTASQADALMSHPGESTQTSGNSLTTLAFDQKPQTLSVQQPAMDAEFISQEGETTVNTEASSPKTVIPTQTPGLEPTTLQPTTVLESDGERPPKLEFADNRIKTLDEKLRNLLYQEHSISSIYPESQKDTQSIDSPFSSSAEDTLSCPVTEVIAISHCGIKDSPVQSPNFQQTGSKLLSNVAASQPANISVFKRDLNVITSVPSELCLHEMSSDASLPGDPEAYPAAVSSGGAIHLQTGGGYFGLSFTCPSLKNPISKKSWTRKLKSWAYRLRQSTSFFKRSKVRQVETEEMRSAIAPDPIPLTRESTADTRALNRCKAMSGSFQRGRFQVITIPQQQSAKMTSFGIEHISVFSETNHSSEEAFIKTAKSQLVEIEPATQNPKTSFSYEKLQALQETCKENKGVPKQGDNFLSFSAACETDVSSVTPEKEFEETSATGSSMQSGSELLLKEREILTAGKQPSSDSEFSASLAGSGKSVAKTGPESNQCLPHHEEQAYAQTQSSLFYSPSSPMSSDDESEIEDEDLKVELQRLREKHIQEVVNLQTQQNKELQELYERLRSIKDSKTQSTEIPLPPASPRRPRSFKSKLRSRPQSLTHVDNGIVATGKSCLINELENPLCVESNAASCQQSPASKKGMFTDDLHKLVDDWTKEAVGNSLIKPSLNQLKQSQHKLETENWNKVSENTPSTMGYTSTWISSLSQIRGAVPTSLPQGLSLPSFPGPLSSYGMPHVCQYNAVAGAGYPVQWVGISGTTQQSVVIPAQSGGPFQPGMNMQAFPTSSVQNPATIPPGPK
Effect on: enzyme activity
Action: inhibitor
Tested at: 0.5 µM
Reference: control
| SMILES | remaining activity |
| --- | --- |
| CNC(=O)c1cc(Oc2ccc(NC(=O)Nc3ccc(Cl)c(C(F)(F)F)c3)cc2)ccn1 | 99.2% |
| COc1ccc(OC)c2c(=S)c3ccccc3[nH]c12 | 99.1% |
| Nc1ncnc2n[nH]c(Nc3ccc(F)cc3)c12 | 103% |
| CCOC(=O)c1c(C)[nH]c(/C=C2\C(=O)Nc3ccccc32)c1C | 104% |
| Cn1c2ccccc2c2c3c(c4c5ccccc5n(CCC#N)c4c21)CNC3=O | 93.1% |
| N#CC(C#N)=C(N)/C(C#N)=C/c1ccc(O)cc1 | 99.8% |
| COc1cc2nccc(Oc3ccc(NC(=S)NC(=O)c4ccccc4C)cc3)c2cc1OC | 101% |
| Nc1ccc2ncnc(NCCc3ccc(Oc4ccccc4)cc3)c2c1 | 114% |
| Oc1ccc(-c2nc(-c3ccncc3)c(-c3ccc(F)cc3)[nH]2)cc1 | 101% |
| CN(C)c1ccc(C=C2C(=O)Nc3ccccc32)cc1 | 98.1% |
| OCC(O)CCON=C1C(c2c(O)[nH]c3ccccc23)=Nc2ccccc21 (stereo not drawn) | 79.7% |
| C#Cc1cccc(Nc2ncnc3cc(OCCOC)c(OCCOC)cc23)c1 | 101% |
| O=C1NC(=O)C(c2cn(CCCn3ccnc3)c3ccccc23)=C1Nc1ccccc1 | 100% |
| O=c1c2ccccc2[nH]c(=S)n1CCN1CCC(=C(c2ccc(F)cc2)c2ccc(F)cc2)CC1 | 107% |
| COc1cc2ncnc(Nc3ccc(F)c(Cl)c3)c2cc1OCCCN1CCOCC1 | 102% |
| O=S(=O)(c1cccc2cnccc12)N1CCCNCC1 | 98.1% |

Repeated from above (series 2):
| SMILES | inhibition [%] |
| --- | --- |
| CC(=O)N1CCC(c2ccc(C(=O)NC(=N)N)cc2C(F)(F)F)CC1 | -4.89 |
| CC(=O)Nc1c(F)cc(C(=O)N[C@H]2CC[C@H](O)CC2)cc1O[C@@H](C)c1ccccc1 | -8.96 |
| O=C(Nc1cccnn1)N1CCC(=Cc2cccc(Oc3ccc(C(F)(F)F)cn3)c2)CC1 | 28.4 |
| O=C(NCc1ncc(C(F)(F)F)cc1Cl)c1ccc2c(c1)C1(CCS(=O)(=O)CC1)[C@H](C1CC1)N2S(=O)(=O)c1ccc(F)cc1 | -8.25 |
